Assay results gathered from unrelated publications.
A part holds a random share of what one study measured.

Set 1
Target: Phosphate system positive regulatory protein PHO4, full length, GST-tagged (PHO4, Saccharomyces cerevisiae, UniProt P07270, residues 1-312)
Method: competition protein-binding microarray
Molecule type: double-stranded DNA, one strand shown
Medium: in vitro
Concentration: 2 µM
Notes: whole 60-bp probe, lowest competitor level
Together with: Cbf1 competitor, 0.05 µM
Direction: higher = stronger binding
All sequences stand within: … GTCTTGATTCGCTTGACGCTGCTG
Residues (chain): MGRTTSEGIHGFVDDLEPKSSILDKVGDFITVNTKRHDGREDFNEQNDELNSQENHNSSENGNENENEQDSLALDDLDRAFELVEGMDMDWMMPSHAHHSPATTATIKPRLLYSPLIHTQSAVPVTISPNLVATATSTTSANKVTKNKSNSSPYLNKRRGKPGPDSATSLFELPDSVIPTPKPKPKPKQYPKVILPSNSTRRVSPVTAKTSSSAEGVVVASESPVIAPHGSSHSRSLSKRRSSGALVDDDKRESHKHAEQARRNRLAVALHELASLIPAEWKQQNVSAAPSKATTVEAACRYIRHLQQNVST
With `CCTTGAAGCCCGGCGGACGTGTCTGCCGGACCGAAA` the fluorescence intensity was 3810 a.u.
For `CATACCCAACCTTGGAGGGTGGGTGAAGATATTTGT`, the fluorescence intensity was 3960 a.u.
For `GGTTCGTAGCCAGACGCCGTGACGGTTGGGCCTCTA`, the fluorescence intensity was 3350 a.u.
The fluorescence intensity of `AAGGTCTATGTTCTTCACGTGATGGAGAGGACTATA` is reported as 12600 a.u.
With `CGTCCTAGCGATTGAGTTGTGGGTGCCATGAGGAAG` the fluorescence intensity was 6110 a.u.
`GTCTTGTCTCATTTTCACGTGATTTTCCCCACTTCA` gave a fluorescence intensity of 8780 a.u.
`ACCACCAAAACCGACCACCGGCGAGCGGATATGCGG` has a fluorescence intensity of 3650 a.u.
For `ATAAAAACACTGCGCAGCGTGCTTTTTCGGGTTCCA`, the fluorescence intensity was 8100 a.u.
`GAAGAGGTGCCTTGTCACCTGACGCCTTATTTTGTG` gave a fluorescence intensity of 3550 a.u.
`ATACGTATGTGTTCGTACGTGCGATCCGCAAGGTCT` has a fluorescence intensity of 7240 a.u.
`AAATTACTAAGTTGGTACGTGGGTGACGCCGTATGA` has a fluorescence intensity of 8540 a.u.
`TCAAAATTGAACGGCCACGTTGAGGGACCGTTGTCA` has a fluorescence intensity of 11200 a.u.
`TGTTAATATACCGACATCGTGTTTTGGGGAATGGGT` has a fluorescence intensity of 12600 a.u.
The fluorescence intensity of `CGTTCTTGGGGACACCGCGTGCGATGCTCAGGATCG` is reported as 10500 a.u.
The fluorescence intensity of `CTAACGAAGGTTTGCGATGTGGGTGACAAGCCAAGT` is reported as 4190 a.u.
`AAGAATGTCATATTCTTCGTGACGGATGGGATGGGA` gave a fluorescence intensity of 3970 a.u.

Set 2
Target: RNA binding protein fox-1 homolog 2, RRM domain, GST-SBP tag (RBFOX2, Homo sapiens, UniProt O43251-10, residues 100-194)
Method: RNA Bind-n-Seq
Molecule type: RNA
Medium: in vitro
Concentration: 365 nM
Notes: natural RNA segment, single round, ends assumed
Relative to: no-protein control
Direction: higher = stronger binding
All sequences stand within: GGGAGUUCUACAGUCCGACGAUC … UGGAAUUCUCGGGUGCCAA
Residues (chain): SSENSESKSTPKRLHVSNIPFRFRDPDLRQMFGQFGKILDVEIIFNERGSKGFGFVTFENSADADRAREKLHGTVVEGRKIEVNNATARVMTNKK
For `UAAUCAGGUGUGGCUAUCUGAGAAAUCAACUUUGGGGGAAAUGUAAGAUUCUGAGCUCUCUCUCUGUUUUGUUCUAGCCAUGAAUUUGCCUGAGAAACUUGUAACCUAUG`, “RBNS enrichment (R)” read 4.94.
For `CUUGGGGAAGAUUUUUCACGCAGCCCUAAGUGCCCAAGCACAUUUUCCCUGGUUGCCUCCUGGGCCCCAUGUGGCCAGCAGAUGCUGGAGUCUGCCUGCUCAGACUAUCA`, “RBNS enrichment (R)” read 0.299.
`CUGGGAUAAAAGGCAGAGUUAGUUUCUCUCAUAGCAUAUAUUGGCAGAAAUGGUUCUGCAAGAUGCUCAAAGGCAUGGAAGAAACAUAUUACUAUUUAUUGUUAAUAUCA` — result for “RBNS enrichment (R)”: 1.13.
Under “RBNS enrichment (R)”, `AUUUUGAUUUAUGUCAAAUCCUAAUUCUAUCAUUCAGUCUUGUUUGGAGUUCUGAACCCAUGAUGUUGUAUUAUGCUUCUUUCUCCUCUUAGCACUCUCAAAUUUCAGGU` is recorded as 0.439.
For `UUGCACUGGGGCUGGCUGGGUUGGAAAGUGGGCUGGACUUCAGCUGCCUUUCUACCCCCAAUGGCAGCUGCCCCCUUAGCACUCACUGUGUUGGGGAGAGGGUGACGAUU`, “RBNS enrichment (R)” read 0.316.
`AACUCUAGAUUUUUUGGUAAACUAUCAAUCUGUAUAUGUUGUAAUUAAGUGUCUAAUGCUAGGAGUUUAUUGGAAGUGUUUAAGAAAUAAAAGAACUCAACUUUUACACU`: “RBNS enrichment (R)” 0.553.
`GUCUAGGGCACACCACCCCCAGCUGCUCACACACAGACCACAUAUUCCUUCUGGGAAGGCCAGCAUCAUCCUGAAGAUGACCUGUGGGGUUGGUCCUUGAUGGCUGUCCC`: “RBNS enrichment (R)” 0.708.
Under “RBNS enrichment (R)”, `GACAAUGUGAGAGGACAAAGUAUGAAGAGUCUGGUUUUUACUAGAACCUGACAGAGAAGGGAAGGUUUCUAUAAAAAGAGACACCAGGCUUUGGGGGCCAGGGCUUCAUG` is recorded as 0.52.
Under “RBNS enrichment (R)”, `AGGCACAAUCACUGUUUCAGAUUUAAAAUUAUUAGUGUGUUUGUUUGGUCCAGAAACUGAGACAAUCACAUGACAGUCACCACGAGGAGAGAAAAUUUAAAAAAUAAAAA` is recorded as 0.632.
Under “RBNS enrichment (R)”, `GAAAAUAUUCAUGCUUGCCAUCUGUUCAUUUCUAAAUUUAUAUUCAUAAAGUUACAGUUUGAUACAGGAAUUAUUAGGAGUAAUUCUUUUCUGUUUCUGUUUAUAAUGAA` is recorded as 1.09.
For `UUUCUCUUGUUCUUGAAACAUUGCAACCAAAAAGGUCAGCACAAAGGCCUUCACCUACGUGAAGACCUCCUGGUAGGAUCUGUCCAUGGGAUGGAGAACCACUCUGUCCA`, “RBNS enrichment (R)” read 0.256.
`GUCUGGCUCUCAGGCUGUAGGCAGUGAUGGGGCAGCACAAGGCUGGAUAAAUCCCUUCCCUAUUGACCUUCUUACAUAGUGCAAGCAAUAAGACUUAUUGAUCUGUGUGU` — result for “RBNS enrichment (R)”: 0.504.

Set 3
Target: Prothrombin, mature alpha-thrombin (F2, Homo sapiens, UniProt P00734)
Method: aptamer microarray, sandwich
Molecule type: DNA with 2'F-ANA
Medium: in vitro
Concentration: 200 nM
Notes: whole 15-mer aptamer, many near background
Together with: Cy3 exosite-II aptamer, 400 nM
Direction: higher = stronger binding
Oligonucleotide: GGTTGGTGTGGTTGG
`2'F-ANA at 1 2 3 4 5 6 9 15`: “mean fluorescence intensity” 80.7 a.u.
For `2'F-ANA at 1 2 4 7 9 10 12 14 15`, “mean fluorescence intensity” read 55.4 a.u.
`2'F-ANA at 2 3 4 5 7 11 12 15` — result for “mean fluorescence intensity”: 130 a.u.
`2'F-ANA at 1 2 3 4 5 6 8 10 12 14 15` — result for “mean fluorescence intensity”: 54.8 a.u.
`2'F-ANA at 1 2 3 4 5 6 7 8 9 10 11 12 13 14 15`: “mean fluorescence intensity” 63.3 a.u.
Under “mean fluorescence intensity”, `2'F-ANA at 2 3 4 5 8 11 12 15` is recorded as 141 a.u.
`2'F-ANA at 1 4 10 11 13`: “mean fluorescence intensity” 47.6 a.u.
`2'F-ANA at 1 5 8 10 11 12 13 15` — result for “mean fluorescence intensity”: 51.6 a.u.
`2'F-ANA at 2 3 4 7 8 9 10`: “mean fluorescence intensity” 315 a.u.
For `2'F-ANA at 2 4 10 11 14`, “mean fluorescence intensity” read 66.4 a.u.
`2'F-ANA at 1 5 6 8 12 13 14 15` — result for “mean fluorescence intensity”: 51.3 a.u.
Under “mean fluorescence intensity”, `2'F-ANA at 1 2 4 7 13 14 15` is recorded as 54.4 a.u.
For `2'F-ANA at 2 3 8 10 11 15`, “mean fluorescence intensity” read 295 a.u.
`2'F-ANA at 4 5 6 9` — result for “mean fluorescence intensity”: 72.8 a.u.
`2'F-ANA at 2 3 8 10 11 13 15` — result for “mean fluorescence intensity”: 319 a.u.
Under “mean fluorescence intensity”, `2'F-ANA at 5 6 9 11 15` is recorded as 59.3 a.u.
Under “mean fluorescence intensity”, `2'F-ANA at 1 2 3 4 5 6 8 10 11 13` is recorded as 47.4 a.u.
`2'F-ANA at 1 4 6 12 14`: “mean fluorescence intensity” 52.5 a.u.
Under “mean fluorescence intensity”, `2'F-ANA at 1 6 11 12` is recorded as 322 a.u.
Under “mean fluorescence intensity”, `2'F-ANA at 4 6 9 10 11 12 13 15` is recorded as 79 a.u.
`2'F-ANA at 2 3 5 12 13 14` — result for “mean fluorescence intensity”: 62.6 a.u.
Under “mean fluorescence intensity”, `2'F-ANA at 4 6 7 8 12 14 15` is recorded as 135 a.u.
Under “mean fluorescence intensity”, `2'F-ANA at 2 3 5 6 7 8 10 13 14 15` is recorded as 88.6 a.u.

Set 4
Target: Interferon regulatory factor 3, full length, phosphomimetic (IRF3, Homo sapiens, UniProt Q14653, residues 1-427, S386D/S396D/S398D/S402D/T404D/S405D)
UniProt Q14653, sequence (whole entry, unmodified, looked up): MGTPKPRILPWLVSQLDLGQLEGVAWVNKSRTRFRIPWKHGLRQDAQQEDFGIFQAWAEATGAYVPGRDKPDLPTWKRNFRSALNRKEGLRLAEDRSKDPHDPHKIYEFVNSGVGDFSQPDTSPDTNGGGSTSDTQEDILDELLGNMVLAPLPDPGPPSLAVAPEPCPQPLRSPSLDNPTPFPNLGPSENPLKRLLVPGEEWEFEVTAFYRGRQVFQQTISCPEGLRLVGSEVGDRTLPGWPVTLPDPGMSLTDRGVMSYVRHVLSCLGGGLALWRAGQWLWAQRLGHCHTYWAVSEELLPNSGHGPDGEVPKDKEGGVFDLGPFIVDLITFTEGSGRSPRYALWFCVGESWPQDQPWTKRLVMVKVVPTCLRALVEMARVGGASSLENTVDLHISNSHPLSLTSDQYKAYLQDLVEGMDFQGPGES
Method: protein-binding microarray
Molecule type: double-stranded DNA, one strand shown
Medium: in vitro
Concentration: 2540 nM top
Notes: 60-bp whole probe
Together with: salmon DNA 0.4 mg/ml
Relative to: random background probes
Direction: higher = stronger binding
All sequences stand within: GCCTAGCAC … GTCTTGATTCGCTTGACGCTGCTG
`TCATTATTTTTTTTATTACTGTGCTAG` — result for “fitted relative affinity”: 0.701 z-score.
Under “fitted relative affinity”, `GACAAACTGAGTATCGAGACGTGCTAG` is recorded as -0.0215 z-score.
`TTAGATTTCGGGAATGGATTAGTGCTA` — result for “fitted relative affinity”: 0.831 z-score.
`GACGGCCTGCTTATCCTGACGTGCTAG`: “fitted relative affinity” -0.569 z-score.
Under “fitted relative affinity”, `GACGATTTCAATCTCGAGACGTGCTAG` is recorded as 2.08 z-score.
`GACGAACTGAGTAACGAGACGTGCTAG` — result for “fitted relative affinity”: -0.126 z-score.
`TTACGTATCGGGTATCGGTTAGTGCTA` — result for “fitted relative affinity”: 2.21 z-score.
Under “fitted relative affinity”, `TCATAATTCACTATTACACTGTGCTAG` is recorded as 1.06 z-score.
For `TTAGGACTGGGTTTGGGTTAGTGCTAG`, “fitted relative affinity” read -0.83 z-score.
`ATGCCTTTCGTCAAGAAGACGTGCTAG`: “fitted relative affinity” 1.4 z-score.
`TTAGGACTGGGTATCGCTTAGTGCTAG` — result for “fitted relative affinity”: -0.396 z-score.
`TTAGGATTGGGACTGGGTTAGTGCTAG` — result for “fitted relative affinity”: -0.527 z-score.
`TCAACTTTCAGTTCTCCACTGTGCTAG`: “fitted relative affinity” 4.72 z-score.
`GACGATATCAGTCTCGAGCCGTGCTAG`: “fitted relative affinity” 0.77 z-score.
`TTTTTTTTCATCATTGCCTAGTGCTAG`: “fitted relative affinity” 1.7 z-score.
`GACGGTTTCGACACGGGGGACGTGCTA` — result for “fitted relative affinity”: 2.81 z-score.
`GACGATATCAGACTGGACACGTGCTAG`: “fitted relative affinity” 0.262 z-score.
`CCTTTTATGGTTTTTTTTTAGTGCTAG` — result for “fitted relative affinity”: 2.98 z-score.
Under “fitted relative affinity”, `TCTGACCCCCTGCGCGGCAGGTGCTAG` is recorded as -0.315 z-score.
`TGAGGTATCGGTATCGGTTAGTGCTAG`: “fitted relative affinity” 5.18 z-score.
`TCAGTTACCCATCTCAAACTGTGCTAG`: “fitted relative affinity” 4.92 z-score.
`TCACATTTAATTATATGACTGTGCTAG` — result for “fitted relative affinity”: 1.14 z-score.

Some of these lines once more (set 3):
Under “mean fluorescence intensity”, `2'F-ANA at 1 2 4 7 13 14 15` is recorded as 54.4 a.u.
For `2'F-ANA at 2 3 8 10 11 15`, “mean fluorescence intensity” read 295 a.u.
`2'F-ANA at 4 5 6 9` — result for “mean fluorescence intensity”: 72.8 a.u.
`2'F-ANA at 2 3 8 10 11 13 15` — result for “mean fluorescence intensity”: 319 a.u.
Under “mean fluorescence intensity”, `2'F-ANA at 5 6 9 11 15` is recorded as 59.3 a.u.
